{"data": "Results collected from several papers", "USP33 ZnF-UBD domain": "Ubiquitin carboxyl-terminal hydrolase 33, ZnF-UBD domain (USP33, Homo sapiens, UniProt Q8TEY7)", "note": "Lines come from different studies, so protocols differ. Values joined by “and” are separate records of one study, mostly repeats; a detail may differ. ± marks the error that the study gave.", "UniProt Q8TEY7, sequence (whole entry, looked up)": "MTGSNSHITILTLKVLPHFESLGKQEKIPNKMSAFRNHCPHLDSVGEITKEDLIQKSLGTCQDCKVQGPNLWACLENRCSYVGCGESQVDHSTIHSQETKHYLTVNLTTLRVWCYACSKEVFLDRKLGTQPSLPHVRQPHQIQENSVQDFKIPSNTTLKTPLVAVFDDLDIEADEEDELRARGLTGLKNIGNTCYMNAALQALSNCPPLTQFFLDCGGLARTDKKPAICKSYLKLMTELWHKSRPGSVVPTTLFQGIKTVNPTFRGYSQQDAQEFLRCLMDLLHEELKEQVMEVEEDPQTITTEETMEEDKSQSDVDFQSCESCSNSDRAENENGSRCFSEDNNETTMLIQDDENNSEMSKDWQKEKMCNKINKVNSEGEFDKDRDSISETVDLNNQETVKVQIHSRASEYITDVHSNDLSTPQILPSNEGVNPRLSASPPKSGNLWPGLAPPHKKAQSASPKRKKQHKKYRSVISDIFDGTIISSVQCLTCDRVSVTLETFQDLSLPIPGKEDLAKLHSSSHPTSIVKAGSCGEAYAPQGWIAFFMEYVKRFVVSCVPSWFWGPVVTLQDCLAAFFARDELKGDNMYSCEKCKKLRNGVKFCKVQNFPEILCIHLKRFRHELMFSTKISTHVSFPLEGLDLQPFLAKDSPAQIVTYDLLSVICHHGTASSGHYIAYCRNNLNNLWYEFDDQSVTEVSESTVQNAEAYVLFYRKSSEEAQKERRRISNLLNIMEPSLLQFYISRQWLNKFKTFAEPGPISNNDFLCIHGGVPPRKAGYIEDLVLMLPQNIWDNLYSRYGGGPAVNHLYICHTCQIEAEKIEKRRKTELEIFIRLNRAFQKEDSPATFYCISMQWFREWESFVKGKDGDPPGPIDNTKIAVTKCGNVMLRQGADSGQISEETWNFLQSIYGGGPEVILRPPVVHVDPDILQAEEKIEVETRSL", "UniProt Q16774, sequence (whole entry, unmodified, looked up)": "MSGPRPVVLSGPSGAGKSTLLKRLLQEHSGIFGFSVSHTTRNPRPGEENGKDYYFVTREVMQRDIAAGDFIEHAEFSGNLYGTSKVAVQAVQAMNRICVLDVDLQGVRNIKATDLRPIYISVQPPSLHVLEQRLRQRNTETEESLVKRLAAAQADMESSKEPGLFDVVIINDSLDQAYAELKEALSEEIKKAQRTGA", "UniProt Q8IZW8, sequence (whole entry, looked up)": "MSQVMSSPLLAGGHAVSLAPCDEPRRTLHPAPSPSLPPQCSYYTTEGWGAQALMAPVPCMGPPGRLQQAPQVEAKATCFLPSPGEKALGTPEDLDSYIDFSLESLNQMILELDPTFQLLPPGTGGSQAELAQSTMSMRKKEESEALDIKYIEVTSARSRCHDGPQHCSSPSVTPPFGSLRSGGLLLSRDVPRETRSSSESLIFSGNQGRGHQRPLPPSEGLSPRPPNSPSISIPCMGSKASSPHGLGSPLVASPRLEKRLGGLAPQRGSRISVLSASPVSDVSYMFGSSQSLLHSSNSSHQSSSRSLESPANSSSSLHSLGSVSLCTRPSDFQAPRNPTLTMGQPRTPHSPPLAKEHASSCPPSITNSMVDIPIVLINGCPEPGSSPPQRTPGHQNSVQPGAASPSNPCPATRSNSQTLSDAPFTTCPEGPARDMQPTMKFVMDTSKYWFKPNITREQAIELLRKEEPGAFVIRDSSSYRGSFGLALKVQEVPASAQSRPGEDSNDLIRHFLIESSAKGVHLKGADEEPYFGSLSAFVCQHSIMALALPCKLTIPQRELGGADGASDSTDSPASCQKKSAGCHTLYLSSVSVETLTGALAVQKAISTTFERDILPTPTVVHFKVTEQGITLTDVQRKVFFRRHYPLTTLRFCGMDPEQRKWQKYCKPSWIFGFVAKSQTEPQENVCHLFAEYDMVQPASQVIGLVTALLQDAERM", "UniProt P31641, sequence (whole entry, unmodified, looked up)": "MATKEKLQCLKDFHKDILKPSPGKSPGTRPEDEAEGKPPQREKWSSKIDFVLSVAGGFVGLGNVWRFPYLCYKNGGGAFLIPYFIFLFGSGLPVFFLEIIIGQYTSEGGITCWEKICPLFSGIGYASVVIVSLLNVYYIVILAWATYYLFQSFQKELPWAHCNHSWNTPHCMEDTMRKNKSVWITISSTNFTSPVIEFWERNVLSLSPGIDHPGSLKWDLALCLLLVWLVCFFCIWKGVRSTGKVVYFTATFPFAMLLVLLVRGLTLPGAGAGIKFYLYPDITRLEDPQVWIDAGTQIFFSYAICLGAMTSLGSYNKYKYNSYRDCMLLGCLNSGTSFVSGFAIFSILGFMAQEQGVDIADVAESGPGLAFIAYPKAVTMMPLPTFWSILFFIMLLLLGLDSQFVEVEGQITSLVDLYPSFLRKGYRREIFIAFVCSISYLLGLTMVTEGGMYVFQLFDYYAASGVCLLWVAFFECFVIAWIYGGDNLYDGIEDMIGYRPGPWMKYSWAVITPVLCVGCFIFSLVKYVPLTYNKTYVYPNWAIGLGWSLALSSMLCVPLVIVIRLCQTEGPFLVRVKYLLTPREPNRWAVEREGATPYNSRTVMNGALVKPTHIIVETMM", "UniProt Q13490, sequence (whole entry, looked up)": "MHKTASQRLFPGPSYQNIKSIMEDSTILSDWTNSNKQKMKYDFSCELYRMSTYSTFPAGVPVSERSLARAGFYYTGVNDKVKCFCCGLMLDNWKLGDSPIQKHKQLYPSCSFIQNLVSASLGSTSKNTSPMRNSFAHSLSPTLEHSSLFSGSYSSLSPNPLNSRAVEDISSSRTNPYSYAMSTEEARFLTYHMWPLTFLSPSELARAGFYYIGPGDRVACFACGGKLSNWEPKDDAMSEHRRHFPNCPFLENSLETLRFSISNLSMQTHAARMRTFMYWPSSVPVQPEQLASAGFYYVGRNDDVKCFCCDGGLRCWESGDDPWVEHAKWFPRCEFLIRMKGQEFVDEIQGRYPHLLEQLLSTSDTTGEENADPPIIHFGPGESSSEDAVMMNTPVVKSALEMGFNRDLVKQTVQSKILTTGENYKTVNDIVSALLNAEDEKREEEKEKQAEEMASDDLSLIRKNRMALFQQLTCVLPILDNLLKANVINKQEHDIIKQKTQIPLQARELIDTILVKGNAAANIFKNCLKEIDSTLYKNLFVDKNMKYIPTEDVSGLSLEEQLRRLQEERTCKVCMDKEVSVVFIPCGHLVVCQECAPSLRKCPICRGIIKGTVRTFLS", "UniProt P39146, sequence (whole entry, unmodified, looked up)": "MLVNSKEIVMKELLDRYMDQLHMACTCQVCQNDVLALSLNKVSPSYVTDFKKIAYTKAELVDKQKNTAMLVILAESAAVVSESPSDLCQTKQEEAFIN", "UniProt P37231, sequence (whole entry, looked up)": "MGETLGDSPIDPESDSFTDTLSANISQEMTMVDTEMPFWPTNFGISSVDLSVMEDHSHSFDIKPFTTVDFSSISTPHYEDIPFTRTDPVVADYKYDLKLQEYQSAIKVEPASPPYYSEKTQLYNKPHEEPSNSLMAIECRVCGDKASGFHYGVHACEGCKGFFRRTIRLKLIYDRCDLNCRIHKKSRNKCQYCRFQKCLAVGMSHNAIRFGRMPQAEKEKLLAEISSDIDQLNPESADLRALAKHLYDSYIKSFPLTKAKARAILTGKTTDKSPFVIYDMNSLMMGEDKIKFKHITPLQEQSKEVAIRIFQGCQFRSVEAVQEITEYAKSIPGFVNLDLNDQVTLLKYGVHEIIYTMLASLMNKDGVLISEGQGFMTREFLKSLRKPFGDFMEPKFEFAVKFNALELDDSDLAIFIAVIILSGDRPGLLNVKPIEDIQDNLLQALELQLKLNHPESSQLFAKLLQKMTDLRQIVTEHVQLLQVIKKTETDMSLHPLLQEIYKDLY", "UniProt P07949, sequence (whole entry, looked up)": "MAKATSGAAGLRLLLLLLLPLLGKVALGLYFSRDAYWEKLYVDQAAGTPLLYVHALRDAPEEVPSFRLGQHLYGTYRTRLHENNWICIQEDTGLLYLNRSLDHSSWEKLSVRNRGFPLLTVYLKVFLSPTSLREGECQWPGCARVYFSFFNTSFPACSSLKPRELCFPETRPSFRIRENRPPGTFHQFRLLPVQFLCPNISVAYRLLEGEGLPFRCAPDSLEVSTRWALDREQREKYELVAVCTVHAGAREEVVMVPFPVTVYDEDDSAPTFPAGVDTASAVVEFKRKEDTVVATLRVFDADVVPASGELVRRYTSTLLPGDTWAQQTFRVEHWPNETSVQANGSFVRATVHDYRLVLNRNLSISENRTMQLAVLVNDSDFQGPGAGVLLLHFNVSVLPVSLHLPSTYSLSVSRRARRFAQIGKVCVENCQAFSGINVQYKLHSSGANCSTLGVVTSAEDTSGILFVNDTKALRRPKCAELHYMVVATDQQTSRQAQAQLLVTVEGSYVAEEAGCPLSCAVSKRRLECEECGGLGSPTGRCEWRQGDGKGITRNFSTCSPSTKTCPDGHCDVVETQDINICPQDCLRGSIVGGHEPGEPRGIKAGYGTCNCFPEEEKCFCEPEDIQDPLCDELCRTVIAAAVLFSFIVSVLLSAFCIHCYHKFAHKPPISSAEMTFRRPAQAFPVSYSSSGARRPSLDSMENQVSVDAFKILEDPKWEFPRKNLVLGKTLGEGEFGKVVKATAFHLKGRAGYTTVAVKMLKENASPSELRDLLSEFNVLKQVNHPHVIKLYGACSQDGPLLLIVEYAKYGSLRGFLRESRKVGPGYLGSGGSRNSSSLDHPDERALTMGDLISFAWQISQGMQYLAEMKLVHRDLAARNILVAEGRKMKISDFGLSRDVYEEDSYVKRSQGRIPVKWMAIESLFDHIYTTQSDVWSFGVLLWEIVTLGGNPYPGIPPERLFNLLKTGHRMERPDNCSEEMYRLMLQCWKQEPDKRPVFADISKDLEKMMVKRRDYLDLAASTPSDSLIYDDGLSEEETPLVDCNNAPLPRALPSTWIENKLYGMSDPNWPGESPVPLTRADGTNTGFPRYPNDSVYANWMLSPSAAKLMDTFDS", "UniProt B9K712, sequence (whole entry, looked up)": "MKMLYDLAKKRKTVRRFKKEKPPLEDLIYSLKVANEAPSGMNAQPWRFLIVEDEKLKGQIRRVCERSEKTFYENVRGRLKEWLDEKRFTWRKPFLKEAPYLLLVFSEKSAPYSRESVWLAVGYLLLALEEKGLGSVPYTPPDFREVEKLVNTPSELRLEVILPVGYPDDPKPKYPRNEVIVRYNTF"}
{"Structure (SMILES)": "NS(=O)(=O)c1ccc(NCC(=O)O)cc1", "target": "USP33 ZnF-UBD domain", "Kd": "> 1000 µM"}
{"Structure (SMILES)": "C=CC(=O)N1CCN(c2nc(OC[C@@H]3CCCN3C)nc3c(F)c(-c4nc(N)cc(C)c4C(F)(F)F)c(Cl)cc23)[C@@H](C)C1", "target": "GTPase KRas, GDP-bound (KRAS, Homo sapiens, UniProt P01116, G12V)", "test": "binding, surface plasmon resonance", "Kd": "11.9 ± 0.76 µM"}
{"Structure (SMILES)": "NCC(=O)O", "target": "Uncharacterized protein (Pelagibacter ubique, UniProt Q4FM26)", "test": "isothermal titration calorimetry", "test system": "Candidatus Pelagibacter ubique", "setting": "direct titration", "Kd": "0.026 ± 0.005 µM"}
{"Structure (SMILES)": "Nc1ncnc2c1ncn2[C@@H]1O[C@H](CO[P@](=O)(O)O[P@](=O)(O)O[P@@](=O)(O)S)[C@@H](O)[C@H]1O", "target": "uncharacterized protein (Thermomonospora curvata, UniProt D1ABX1)", "test": "isothermal titration calorimetry", "setting": "pH 7.5, 25 °C", "Kd": "39.4 ± 8.8 µM"}
{"Structure (SMILES)": "O=C(O)CCC(=O)c1ccc(S(=O)(=O)N2CCCC2)cc1", "target": "USP33 ZnF-UBD domain", "Kd": "> 1000 µM"}
{"Structure (SMILES)": "Nc1ncnc2c1ncn2[C@@H]1O[C@H](COP(=O)(O)OP(=O)(O)O)[C@@H](O)[C@H]1O", "target": "GUK1 (Homo sapiens, UniProt Q16774, S18A)", "test": "binding, ITC", "setting": "25 °C, together with: GMP", "Kd": "30 ± 3 µM"}
{"Structure (SMILES)": "Cc1cc(Nc2cc3ncccc3c(N[C@@H]3C[C@H]4CC[C@@H](C3)N4CCC#N)n2)n[nH]1", "target": "Proto-oncogene tyrosine-protein kinase receptor Ret (RET, Homo sapiens, UniProt P07949)", "test": "binding, KINOMEscan", "Kd": "0.042 µM"}
{"Structure (SMILES)": "N[C@@H](CCC(=O)O)C(=O)O", "target": "Uncharacterized protein (Pelagibacter ubique, UniProt Q4FM26)", "test": "binding, competition isothermal titration calorimetry", "test system": "Candidatus Pelagibacter ubique", "setting": "together with: phenylalanine 1 mM competitor", "Kd": "0.000344 µM and 0.000719 µM"}
{"Structure (SMILES)": "C[C@H](N)C(=O)N[C@@H](CCCCNC(=O)CCCCC(=O)NCCCC[C@H](NC(=O)[C@H](C)N)C(=O)N1CCC[C@H]1C(=O)N[C@@H](Cc1ccccc1)C(=O)N[C@H](CCCCNC(=O)c1ccc2c(c1)C(=O)OC21c2ccc(O)cc2Oc2cc(O)ccc21)C(N)=O)C(=O)N1CCC[C@H]1C(=O)N[C@@H](Cc1ccccc1)C(N)=O", "target": "Baculoviral IAP repeat-containing protein 2, BIR3 domain (BIRC2, Homo sapiens, UniProt Q13490)", "test": "binding, fluorescence polarisation", "setting": "together with: tracer 1 nM", "Kd": "0.0007 ± 0.0005 µM"}
{"Structure (SMILES)": "Nc1ncnc2c1ncn2[C@@H]1O[C@H](COP(=O)(O)OP(=O)(O)OP(=O)(O)O)[C@@H](O)[C@H]1O", "target": "Creatine kinase U-type, mitochondrial (CKMT1A, Homo sapiens, UniProt P12532, H99A)", "test": "microscale thermophoresis", "setting": "pH 8.5, H61A mutant, no substrate", "Kd": "18 ± 7 µM"}
{"Structure (SMILES)": "O=C(O)CCC(=O)C(=O)O", "target": "NtcA", "test": "binding, microscale thermophoresis", "setting": "no DNA", "Kd": "2000 µM"}
{"Structure (SMILES)": "N[C@@H](CO)C(=O)O", "target": "Uncharacterized protein (Pelagibacter ubique, UniProt Q4FM26)", "test": "isothermal titration calorimetry", "test system": "Candidatus Pelagibacter ubique", "Kd": "0.00591 µM and 0.00679 µM"}
{"Structure (SMILES)": "Nc1ncnc2c1ncn2[C@@H]1O[C@H](COP(=O)(O)OP(=O)(O)O)[C@@H](O)[C@H]1O", "target": "Creatine kinase U-type, mitochondrial (CKMT1A, Homo sapiens, UniProt P12532, E265Q)", "test": "microscale thermophoresis", "setting": "pH 8.5, together with: creatine + nitrate", "Kd": "2 ± 1 µM"}
{"Structure (SMILES)": "N[C@@H](Cc1ccc(O)c(I)c1)C(=O)O", "target": "Iodotyrosine deiodinase, split at 68–92 (IYD, Thermotoga neapolitana, UniProt B9K712)", "test": "fluorescence quenching", "setting": "25 °C, oxidized enzyme", "Kd": "410 ± 20 µM"}
{"Structure (SMILES)": "c1ccc2[nH]ccc2c1", "target": "IBR region (Acinetobacter baumannii)", "test": "microscale thermophoresis", "Kd": "12.1 ± 3.17 µM"}
{"Structure (SMILES)": "NC(=O)c1cc(-n2c(CCC(=O)O)nc3ccccc32)cs1", "target": "USP33 ZnF-UBD domain", "Kd": "> 1000 µM"}
{"Structure (SMILES)": "CC[C@H](C)[C@H](NC(=O)[C@H](CC(C)C)NC(=O)[C@H](Cc1ccc(OP(=O)(O)O)cc1)NC(=O)[C@H](CCC(=O)O)NC(=O)[C@H](CC(=O)O)NC(=O)[C@H](C)NC(=O)[C@H](CC(=O)O)NC(=O)[C@@H](NC(=O)[C@@H](NC(=O)[C@H](CC(=O)O)NC(=O)[C@H](CC(=O)O)NC(=O)[C@H](CCSC)NC(=O)c1ccc2c(c1)C(=O)OC21c2ccc(N(C)C)cc2Oc2cc(N(C)C)ccc21)C(C)C)C(C)C)C(=O)N1CCC[C@H]1C(=O)N[C@@H](CCC(N)=O)C(=O)N[C@@H](CCC(N)=O)C(=O)NCC(=O)N[C@@H](Cc1ccccc1)C(=O)N[C@@H](CC(=O)O)C(=O)O", "target": "Tensin-4, SH2 domain (Homo sapiens, UniProt Q8IZW8)", "test": "binding", "Kd": "0.922 µM"}
{"Structure (SMILES)": "COc1cc2oc(=O)cc(C)c2cc1CCC(=O)O", "target": "USP33 ZnF-UBD domain", "Kd": "> 1000 µM"}
{"Structure (SMILES)": "C[C@]12C=CC(=O)C=C1CC[C@@H]1[C@@H]2[C@@H](O)C[C@@]2(C)[C@H]1CC[C@]2(O)C(=O)CO", "target": "Corticosteroid-binding globulin (SERPINA6, Homo sapiens, UniProt P08185)", "test": "binding, ultrafiltration, LC-MS/MS", "test system": "nondiabetic male subjects, plasma", "setting": "37 °C, 10% CO2, albumin and cortisol competition modelled", "Kd": "0.0362 µM"}
{"Structure (SMILES)": "Nc1ccn([C@@H]2O[C@H](COP(=O)(O)OP(=O)(O)OP(=O)(O)O)[C@@H](O)[C@H]2O)c(=O)n1", "target": "BisD Pseudomonas knackmussii", "test": "ITC", "Kd": "~2 µM"}
{"Structure (SMILES)": "OC[C@H]1OC(O)[C@H](O)[C@@H](O)[C@@H]1O (stereo partly drawn)", "target": "Transcription factor MafB (MAFB, Homo sapiens, UniProt Q9Y5Q3)", "test": "binding, microscale thermophoresis", "Kd": "> 2000 µM"}
{"Structure (SMILES)": "O=C(O)CCn1cccn1", "target": "USP33 ZnF-UBD domain", "Kd": "> 1000 µM"}
{"Structure (SMILES)": "OC[C@H]1O[C@H](O[C@H]2[C@H](O)[C@@H](O)[C@@H](O[C@H]3[C@H](O)[C@@H](O)[C@@H](O[C@H]4[C@H](O)[C@@H](O)C(O)O[C@@H]4CO)O[C@@H]3CO)O[C@@H]2CO)[C@H](O)[C@@H](O)[C@@H]1O (stereo partly drawn)", "target": "Uncharacterized protein (Staphylococcus aureus, UniProt Q2G1E9)", "test": "isothermal titration calorimetry", "setting": "25 °C, single-site fit", "Kd": "1.11 ± 0.06 µM"}
{"Structure (SMILES)": "Nc1nc2c(ncn2[C@@H]2O[C@@H]3CO[P@](=O)(O)O[C@H]4[C@@H](O)[C@H](n5cnc6c(=O)[nH]c(N)nc65)O[C@@H]4CO[P@](=O)(O)O[C@H]3[C@H]2O)c(=O)[nH]1", "target": "Competence protein ComFB (comFB, Bacillus subtilis, UniProt P39146, D33A)", "Kd": "12.6 ± 0.3 µM"}
{"Structure (SMILES)": "OC[C@@H](O)[C@@H](O[C@H]1O[C@H](CO)[C@@H](O[C@H]2O[C@H](CO)[C@@H](O[C@H]3O[C@H](CO)[C@@H](O)[C@H](O)[C@H]3O)[C@H](O)[C@H]2O)[C@H](O)[C@H]1O)[C@H](O)[C@@H](O)CO", "target": "Uncharacterized protein (Staphylococcus aureus, UniProt Q2G1E9)", "test": "isothermal titration calorimetry", "setting": "25 °C, single-site fit", "Kd": "0.84 ± 0.19 µM"}
{"Structure (SMILES)": "NCCCC(=O)O", "target": "Sodium- and chloride-dependent taurine transporter (SLC6A6, Homo sapiens, UniProt P31641, F300A)", "test": "microscale thermophoresis", "setting": "F300A mutant", "Kd": "no binding"}
{"Structure (SMILES)": "Nc1nc2c(ncn2[C@@H]2O[C@H](COP(=O)(O)O)[C@@H](O)[C@H]2O)c(=O)[nH]1", "target": "GUK1 (Homo sapiens, UniProt Q16774, E72A)", "test": "binding, ITC", "setting": "25 °C, together with: GMP", "Kd": "> 500 µM"}
{"Structure (SMILES)": "Cc1sc2ncn(CC(=O)O)c(=O)c2c1C", "target": "USP33 ZnF-UBD domain", "Kd": "> 1000 µM"}
{"Structure (SMILES)": "OC[C@H]1O[C@H](O[C@H]2[C@H](O)[C@@H](O)[C@@H](O[C@H]3[C@H](O)[C@@H](O)[C@@H](O[C@H]4[C@H](O)[C@@H](O)[C@@H](O[C@H]5[C@H](O)[C@@H](O)[C@@H](O[C@H]6[C@H](O)[C@@H](O)[C@@H](O[C@H]7[C@H](O)[C@@H](O)C(O)O[C@@H]7CO)O[C@@H]6CO)O[C@@H]5CO)O[C@@H]4CO)O[C@@H]3CO)O[C@@H]2CO)[C@H](O)[C@@H](O)[C@@H]1O (stereo partly drawn)", "target": "Uncharacterized protein (Staphylococcus aureus, UniProt Q2G1E9)", "test": "isothermal titration calorimetry", "setting": "25 °C, single-site fit", "Kd": "1.17 ± 0.07 µM"}
{"Structure (SMILES)": "NCc1ccc(S(N)(=O)=O)cc1", "target": "Carbonic anhydrase 4 (CA4, Homo sapiens, UniProt P22748)", "test": "fluorescent thermal shift", "setting": "pH 7.0, 25 °C", "Kd": "3.3 µM"}
{"Structure (SMILES)": "O=C(O)CCn1cnc2ccccc21", "target": "USP33 ZnF-UBD domain", "Kd": "> 1000 µM"}
{"Structure (SMILES)": "O=c1ccn([C@@H]2O[C@H](COP(=O)(O)OP(=O)(O)OP(=O)(O)O)[C@@H](O)[C@H]2O)c(=O)[nH]1", "target": "BisD (Pseudomonas knackmussii)", "test": "binding, isothermal titration calorimetry", "Kd": "~21 µM"}
{"Structure (SMILES)": "NC[C@@H]1O[C@H](O[C@H]2[C@@H](O)[C@H](O[C@@H]3[C@@H](O)[C@H](N)C[C@H](N)[C@H]3O[C@H]3O[C@H](CN)[C@@H](O)[C@H](O)[C@H]3N)O[C@@H]2CO)[C@H](N)[C@@H](O)[C@@H]1O", "target": "(CUG)10 RNA", "test": "SPR", "Kd": "0.472 µM"}
{"Structure (SMILES)": "CCn1cnc(C(=O)NC)c1C(=O)NC", "target": "Casein kinase I isoform delta (CSNK1D, Homo sapiens, UniProt P48730)", "test": "surface plasmon resonance", "setting": "up to 50 µM", "Kd": "no binding"}
{"Structure (SMILES)": "O=C(O)CCn1nnc(-c2ccccc2)n1", "target": "USP33 ZnF-UBD domain", "Kd": "> 1000 µM"}
{"Structure (SMILES)": "O=C(Nc1ccccc1)c1cc([N+](=O)[O-])ccc1Cl", "target": "Peroxisome proliferator-activated receptor gamma, with RXRα (PPARG, Homo sapiens, UniProt P37231)", "test": "NCoR peptide recruitment, fluorescence anisotropy", "setting": "LBD with RXRα, together with: FITC-NCoR 2263 peptide", "Kd": "0.264 µM"}
